{"data": "Experimental data of several laboratories", "note": "Each line is one published result; not all experiments were run side by side. Several values in a cell are separate wells, animals, samples, runs or records. Numbers after ± are the reported error."}
{"Compound": "CC(C)C12OC1C1OC13C1(C)CCC4=C(COC4=O)C1CC1OC13C2OC(=O)CCCOC1OC(CO)C(O)C(O)C1O (stereo not drawn)", "cell line": "human Astrocyte", "test": "cell growth or viability, XTT", "setting": "47 h", "endpoint": "IC50", "value": "10900 nM"}
{"Compound": "C/C1=C\\[C@H](C)C[C@H](C)OC(=O)C[C@H](c2ccc(O)cc2)NC(=O)[C@@H](Cc2c(Br)[nH]c3ccccc23)N(C)C(=O)[C@H](C)NC(=O)[C@@H](C)C1", "cell line": "HUVEC", "test": "cell growth or viability", "endpoint": "GI50", "value": "9.8 nM"}
{"Compound": "NC(=S)N/N=C/c1ccc(OCc2cccc(F)c2)cc1", "cell line": "IMR-32", "setting": "50 µg/mL, 24 h", "scale": "higher = more activity", "endpoint": "catalase activity (OD450)", "value": "0.078 a.u."}
{"Compound": "C=CC12CN(C)C3C4COC(CC41)C1(C(=O)N(OC)c4ccccc41)C32 (stereo not drawn)", "cell line": "Vero", "test": "CCK-8", "setting": "up to 100 µM, 24 h", "endpoint": "viability", "value": "no effect"}
{"Compound": "Cc1cc(Oc2nc(N3CC[C@@H](c4ccncc4)C3)ncc2F)[nH]n1", "cell line": "SNB-75", "test": "cell proliferation", "system": "brain cancer", "endpoint": "IC50", "value": "> 100000 nM"}
{"Compound": "O=C(O)c1ccc(-c2nc(-c3ccccc3Cl)c3sccn23)cc1", "cell line": "K562", "test": "erythroid differentiation, flow cytometry", "setting": "0.1 mM, 24 h, unit not given", "scale": "relative to: untreated", "endpoint": "CD71 fluorescence intensity", "value": "0.87 and 0.86 and 0.78"}
{"Compound": "CC1OC2OC3C4=C(OC3(C)C12O)C(=O)c1c(O)cccc1C4=O (stereo not drawn)", "cell line": "HeLa and Vero", "test": "MTT", "scale": "relative to: CC50 Vero over EC50 HeLa", "endpoint": "selectivity index", "value": 3.08}
{"Compound": "CC(C)C[C@H](NC(=O)[C@H](CC(=O)O)NC(=O)CNC(=O)[C@@H](N)CCCNC(=N)N)C(=O)N[C@@H](C)C(=O)N[C@H](C(=O)N[C@@H](CC(C)C)C(=O)N[C@@H](CCCNC(=N)N)C(=O)N[C@@H](CCC(N)=O)C(=O)N[C@@H](CC(C)C)C(=O)N[C@@H](C)C(=O)N[C@@H](CCC(N)=O)C(=O)N[C@@H](CCC(=O)O)C(=O)N[C@@H](CC(=O)O)C(=O)NCC(=O)N[C@H](C(=O)N[C@H](C(=O)NCC(=O)N[C@H](C(=O)N[C@@H](CCCNC(=N)N)C(=O)NCCOCCOCCOCCOCCOCCOCCOCCOCCOCCOCCOCCOCCC(=O)N[C@@H](CS)C(N)=O)C(C)C)C(C)C)C(C)C)[C@@H](C)O", "cell line": "H358 lung adenocarcinoma", "test": "cell binding, phage binding, measured: output/input phage", "setting": "10 min, 37 °C", "scale": "relative to: control phage", "endpoint": "selectivity ratio", "value": "130 ± 19"}
{"Compound": "COc1ccccc1-c1ccncc1C(=O)Nc1nnc(OCc2ccc(Cl)cc2)s1", "cell line": "RPE-1 TP53-/- BRCA1-/-", "setting": "8 µM", "scale": "relative to: untreated", "endpoint": "colony survival", "value": "23.4% and 29.7%"}
{"Compound": "C=CCN1C(=O)C(CC=C)(C(=O)OCC)Oc2cc(F)ccc21 (stereo not drawn)", "cell line": "HaCaT", "test": "cell growth or viability, CCK-8", "setting": "6.25 µM, 72 h", "endpoint": "inhibition", "value": "0.25%"}
{"Compound": "CC[C@H]1CN([C@@H](CC)c2ccc(C(F)(F)F)cc2)[C@H](CC)CN1c1nc(=O)n(C)c2ccc(C#N)nc12", "cell line": "human CD4+ T cells", "test": "protein phosphorylation, phosphoproteomics, measured: ZFP91 Ser69 phosphorylation", "setting": "1 h, stimulation 60 min", "endpoint": "EC50", "value": "1.05 nM"}
{"Compound": "COc1ccc(NC(=O)c2ccc3[nH]c(-c4ccc(N(C)C)cc4)nc3c2)cn1", "cell line": "HCT116", "test": "IncuCyte", "setting": "concentration not given, 16 (unit not given)", "endpoint": "PI-positive cells", "value": "85.5 count and 36.2 count and 58.5 count"}
{"Compound": "CC(C)C12OC1C1OC13C1(C)CCC4=C(COC4=O)C1CC1OC13C2OC(=O)CCC(=O)OC1OC(CO)C(O)C(O)C1O (stereo not drawn)", "cell line": "BXPC-3", "test": "cell growth or viability, XTT", "setting": "47 h", "endpoint": "IC50", "value": "4150 nM"}
{"Compound": "O=c1n(CCNCCOS(=O)(=O)c2ccccc2)c(=O)n(S(=O)(=O)c2ccccc2)c(=O)n1S(=O)(=O)c1ccccc1", "cell line": "A549", "test": "cell growth or viability, MTT", "setting": "25 µg/mL, 72 h", "endpoint": "viability", "value": "49.1%"}
{"Compound": "CC(C)(C)C(=O)OCOP(=O)(OCOC(=O)C(C)(C)C)C1CCCN(O)C1=O (stereo not drawn)", "cell line": "RPMI-8226", "endpoint": "log LC50", "value": "> -4 log M"}
{"Compound": "CC(C)CC(O)(CC(C)C)c1cn(C(=O)N2CCCC2)nn1", "cell line": "mouse T-cells", "test": "N-terminal labelling enrichment, measured: Zfp91 N-terminal peptides", "setting": "1 nM, 6 h, protein median", "scale": "relative to: DMSO", "endpoint": "SILAC ratio", "value": 0.93}
{"Compound": "CC(C)C[C@H](NC(=O)[C@@H]1CCCN1C(=O)[C@H](CCCCN)NC(=O)[C@@H](N)CO)C(=O)N1CCC[C@H]1C(=O)N[C@@H](CCC(=O)O)C(=O)N[C@H](C(=O)N[C@H](C(=O)N[C@@H](CC(=O)O)C(=O)N[C@@H](CCC(=O)O)C(=O)N[C@@H](Cc1ccc(O)cc1)C(=O)NCC(=O)NCCOCCOCCOCCOCCOCCOCCOCCOCCOCCOCCOCCOCCC(=O)N[C@@H](CCCCNC(=O)CC[C@H](C(=O)O)N1CCN(CC(=O)O)CCN(CC(=O)O)CC1)C(=O)N1CCN(CCCN(C)c2ccc3nccc(C(=O)NCC(=O)N4CC(F)(F)C[C@H]4C#N)c3c2)CC1)[C@@H](C)O)C(C)C", "cell line": "MRC5", "test": "T-cell-mediated lysis", "setting": "16 h, effector to target 5:1", "endpoint": "EC50", "value": "0.538 nM"}
{"Compound": "C#CCN1C(=O)C(CC#C)(C(=O)OCC)Oc2ccccc21 (stereo not drawn)", "cell line": "L02", "test": "cell growth or viability, CCK-8", "setting": "12.5 µM, 72 h", "endpoint": "inhibition", "value": "0.54%"}
{"Compound": "CSCC[C@H](NC(=O)[C@@H](NC(=O)[C@H](CCC(N)=O)NC(=O)[C@H](CO)NC(=O)[C@@H](N)C(C)C)[C@@H](C)O)C(=O)N[C@@H](CCCNC(=N)N)C(=O)N[C@@H](CCC(N)=O)C(=O)N[C@H](C(=O)N[C@@H](C)C(=O)N[C@H](C(=O)N1CCC[C@H]1C(=O)N[C@@H](CC(C)C)C(=O)N[C@@H](CC(C)C)C(=O)N[C@@H](Cc1c[nH]c2ccccc12)C(=O)N[C@@H](Cc1ccccc1)C(=O)N[C@@H](Cc1c[nH]c2ccccc12)C(=O)N[C@H](C(=O)NCC(=O)N[C@@H](CO)C(=O)N[C@@H](CC(C)C)C(=O)NCCOCCOCCOCCOCCOCCOCCOCCOCCOCCOCCOCCOCCC(=O)N[C@@H](CS)C(N)=O)[C@@H](C)O)C(C)C)[C@@H](C)O", "cell line": "H1993", "test": "phage binding", "setting": "10 min, 37 °C", "scale": "relative to: control phage", "endpoint": "selectivity ratio", "value": "27 ± 6"}
{"Compound": "CC[C@H](C)[C@H](NC(=O)CNC(=O)[C@H](Cc1ccc(O)cc1)NC(=O)[C@H](CO)NC(=O)[C@H](Cc1ccc(O)cc1)NC(=O)[C@@H](NC(=O)[C@H](CC(=O)O)NC(=O)[C@H](CO)NC(=O)[C@H](CCC(N)=O)NC(=O)[C@H](Cc1ccccc1)NC(=O)[C@H](CO)NC(=O)[C@H](Cc1ccccc1)NC(=O)[C@@H]1CCCN1C(=O)[C@H](CC(N)=O)NC(=O)[C@H](CC(N)=O)NC(=O)[C@H](CC(=O)O)NC(=O)[C@H](CCC(N)=O)NC(=O)[C@@H]1CCCN1C(=O)[C@H](CCCNC(=N)N)NC(=O)[C@H](CCCNC(=N)N)NC(=O)[C@H](CCCNC(=N)N)NC(=O)[C@H](CCC(N)=O)NC(=O)[C@H](CCCNC(=N)N)NC(=O)[C@H](CCCNC(=N)N)NC(=O)[C@H](CCCCN)NC(=O)[C@H](CCCCN)NC(=O)[C@H](CCCNC(=N)N)NC(=O)CN)C(C)C)C(=O)N[C@H](C(=O)N[C@@H](CC(C)C)C(N)=O)C(C)C", "cell line": "MCF7", "test": "immunoblot densitometry, measured: phospho-c-Raf Ser338", "setting": "5 µM, 48 h, unit not given", "scale": "relative to: 0 µM", "endpoint": "phospho-c-Raf level", "value": "0.58 and 0.684"}
{"Compound": "CC(C)[C@H](NC(=O)[C@H](CCCNC(=N)N)NC(=O)[C@@H]1CCCN1C(=O)[C@@H](NC(=O)[C@H](C)NC(=O)[C@H](Cc1ccc(O)cc1)NC(=O)[C@H](CCC(N)=O)NC(=O)[C@H](CCCCN)NC(=O)[C@H](CCCNC(=N)N)NC(=O)[C@@H]1CCCN1C(=O)[C@H](CCC(=O)O)NC(=O)[C@@H](NC(=O)[C@H](C)N)[C@@H](C)O)[C@@H](C)O)C(=O)N[C@@H](Cc1ccccc1)C(=O)N[C@@H](Cc1c[nH]c2ccccc12)C(=O)N[C@H](C(=O)N[C@@H](CC(=O)O)C(=O)N[C@@H](C)C(=O)N1CCC[C@H]1C(=O)NCC(=O)NCCOCCOCCOCCOCCOCCOCCOCCOCCOCCOCCOCCOCCC(=O)N[C@@H](CS)C(N)=O)[C@@H](C)O", "cell line": "Calu-1 lung mucoepidermoid carcinoma", "test": "cell binding, phage binding, measured: output/input phage", "setting": "10 min, 37 °C", "scale": "relative to: control phage", "endpoint": "selectivity ratio", "value": "1.4 ± 0.39"}
{"Compound": "CCOC(=O)C1(Cc2ccccc2)Oc2cc(F)ccc2N(Cc2ccccc2)C1=O (stereo not drawn)", "cell line": "HaCaT", "test": "cell growth or viability, CCK-8", "setting": "3.13 µM, 72 h", "endpoint": "inhibition", "value": "0.39%"}
{"Compound": "CC(=O)NCSC[C@H](NC(=O)[C@@H]1CCCN1C(=O)[C@H](C)NC(=O)[C@@H](NC(=O)CNC(=O)[C@@H](NC(=O)[C@H](Cc1c[nH]c2ccccc12)NC(=O)[C@H](C)NC(=O)CNC(=O)[C@H](CO)NC(=O)[C@H](C)NC(=O)[C@@H]1CCCN1C(=O)[C@H](Cc1c[nH]c2ccccc12)NC(=O)[C@H](C)NC(=O)[C@H](C)NC(=O)[C@@H](N)Cc1ccc(O)cc1)[C@@H](C)O)[C@@H](C)O)C(=O)N[C@@H](CO)C(=O)N[C@@H](C)C(=O)NCC(=O)N[C@H](C(=O)NCCOCCOCCOCCOCCOCCOCCOCCOCCOCCOCCOCCOCCC(=O)N[C@@H](CS)C(N)=O)[C@@H](C)O", "cell line": "H1819", "test": "phage binding", "setting": "10 min, 37 °C", "scale": "relative to: control phage", "endpoint": "selectivity ratio", "value": "8.6 ± 4.1"}
{"Compound": "CNC(=S)N/N=C/c1ccc(OCc2ccccc2)cc1", "cell line": "IMR-32", "setting": "200 µg/mL, 24 h", "scale": "higher = more activity", "endpoint": "catalase activity (OD450)", "value": "0.036 a.u."}
{"note": "Excerpt of the above:"}
{"Compound": "C#CCN1C(=O)C(CC#C)(C(=O)OCC)Oc2ccccc21 (stereo not drawn)", "cell line": "L02", "test": "cell growth or viability, CCK-8", "setting": "12.5 µM, 72 h", "endpoint": "inhibition", "value": "0.54%"}
{"Compound": "NC(=S)N/N=C/c1ccc(OCc2cccc(F)c2)cc1", "cell line": "IMR-32", "setting": "50 µg/mL, 24 h", "scale": "higher = more activity", "endpoint": "catalase activity (OD450)", "value": "0.078 a.u."}
{"Compound": "CC(C)[C@H](NC(=O)[C@H](CCCNC(=N)N)NC(=O)[C@@H]1CCCN1C(=O)[C@@H](NC(=O)[C@H](C)NC(=O)[C@H](Cc1ccc(O)cc1)NC(=O)[C@H](CCC(N)=O)NC(=O)[C@H](CCCCN)NC(=O)[C@H](CCCNC(=N)N)NC(=O)[C@@H]1CCCN1C(=O)[C@H](CCC(=O)O)NC(=O)[C@@H](NC(=O)[C@H](C)N)[C@@H](C)O)[C@@H](C)O)C(=O)N[C@@H](Cc1ccccc1)C(=O)N[C@@H](Cc1c[nH]c2ccccc12)C(=O)N[C@H](C(=O)N[C@@H](CC(=O)O)C(=O)N[C@@H](C)C(=O)N1CCC[C@H]1C(=O)NCC(=O)NCCOCCOCCOCCOCCOCCOCCOCCOCCOCCOCCOCCOCCC(=O)N[C@@H](CS)C(N)=O)[C@@H](C)O", "cell line": "Calu-1 lung mucoepidermoid carcinoma", "test": "cell binding, phage binding, measured: output/input phage", "setting": "10 min, 37 °C", "scale": "relative to: control phage", "endpoint": "selectivity ratio", "value": "1.4 ± 0.39"}
